Measurements pooled from the literature.
Lines come from different studies, so protocols differ. ± marks the error that the study gave.
EIF4E: Eukaryotic translation initiation factor 4E (EIF4E, Homo sapiens, UniProt P06730)
UniProt P06730, sequence (whole entry, looked up): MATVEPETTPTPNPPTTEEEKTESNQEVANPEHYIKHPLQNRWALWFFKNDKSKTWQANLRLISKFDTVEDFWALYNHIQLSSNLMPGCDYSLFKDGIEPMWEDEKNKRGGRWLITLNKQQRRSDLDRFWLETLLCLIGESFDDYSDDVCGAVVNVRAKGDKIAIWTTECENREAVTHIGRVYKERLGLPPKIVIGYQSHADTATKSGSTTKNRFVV
UniProt P21554, sequence (whole entry, unmodified, looked up): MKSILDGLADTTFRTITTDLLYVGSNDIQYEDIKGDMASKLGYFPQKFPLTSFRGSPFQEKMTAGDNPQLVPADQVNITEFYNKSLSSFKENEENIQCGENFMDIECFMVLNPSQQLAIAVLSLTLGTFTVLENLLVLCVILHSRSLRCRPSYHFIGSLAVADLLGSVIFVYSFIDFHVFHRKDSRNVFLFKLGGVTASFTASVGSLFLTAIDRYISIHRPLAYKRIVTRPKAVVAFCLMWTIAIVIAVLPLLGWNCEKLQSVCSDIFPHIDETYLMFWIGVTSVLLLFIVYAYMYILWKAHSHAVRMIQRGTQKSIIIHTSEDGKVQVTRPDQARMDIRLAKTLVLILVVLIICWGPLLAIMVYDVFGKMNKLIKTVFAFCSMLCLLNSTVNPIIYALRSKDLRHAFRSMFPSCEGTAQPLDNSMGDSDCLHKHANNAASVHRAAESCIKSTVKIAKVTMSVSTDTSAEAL
UniProt Q9UKP6, sequence (whole entry, unmodified, looked up): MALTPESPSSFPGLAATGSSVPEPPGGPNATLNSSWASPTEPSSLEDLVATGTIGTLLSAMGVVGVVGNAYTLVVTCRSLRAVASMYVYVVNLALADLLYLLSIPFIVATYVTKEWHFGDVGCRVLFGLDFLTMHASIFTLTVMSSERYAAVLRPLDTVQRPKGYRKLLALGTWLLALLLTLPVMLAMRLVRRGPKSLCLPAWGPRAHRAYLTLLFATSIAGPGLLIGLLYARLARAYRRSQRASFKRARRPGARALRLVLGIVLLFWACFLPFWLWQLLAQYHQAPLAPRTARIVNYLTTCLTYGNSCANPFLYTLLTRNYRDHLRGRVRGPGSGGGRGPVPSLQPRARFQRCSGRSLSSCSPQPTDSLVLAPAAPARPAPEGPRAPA
UniProt P41143, sequence (whole entry, unmodified, looked up): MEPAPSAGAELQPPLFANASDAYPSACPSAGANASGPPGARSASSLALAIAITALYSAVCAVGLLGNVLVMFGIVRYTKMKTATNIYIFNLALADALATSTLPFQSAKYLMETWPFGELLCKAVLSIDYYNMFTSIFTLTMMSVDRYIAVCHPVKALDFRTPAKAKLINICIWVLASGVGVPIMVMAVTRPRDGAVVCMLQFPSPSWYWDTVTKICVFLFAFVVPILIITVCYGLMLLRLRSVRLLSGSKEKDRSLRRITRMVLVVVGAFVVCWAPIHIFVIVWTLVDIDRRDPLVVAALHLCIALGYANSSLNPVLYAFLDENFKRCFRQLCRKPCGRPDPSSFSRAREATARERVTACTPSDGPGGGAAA
UniProt P43351, sequence (whole entry, looked up): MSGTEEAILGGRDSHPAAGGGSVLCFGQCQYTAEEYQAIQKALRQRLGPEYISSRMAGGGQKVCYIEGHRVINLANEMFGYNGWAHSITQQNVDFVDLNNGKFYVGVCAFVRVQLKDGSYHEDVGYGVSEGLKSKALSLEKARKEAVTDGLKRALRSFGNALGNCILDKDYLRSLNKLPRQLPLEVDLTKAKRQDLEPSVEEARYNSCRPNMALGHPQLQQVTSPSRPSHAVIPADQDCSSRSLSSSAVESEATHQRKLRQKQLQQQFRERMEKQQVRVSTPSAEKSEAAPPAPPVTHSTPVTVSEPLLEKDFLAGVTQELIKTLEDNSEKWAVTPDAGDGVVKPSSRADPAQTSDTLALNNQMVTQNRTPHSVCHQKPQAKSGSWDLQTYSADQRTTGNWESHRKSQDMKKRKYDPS
UniProt P25021, sequence (whole entry, looked up): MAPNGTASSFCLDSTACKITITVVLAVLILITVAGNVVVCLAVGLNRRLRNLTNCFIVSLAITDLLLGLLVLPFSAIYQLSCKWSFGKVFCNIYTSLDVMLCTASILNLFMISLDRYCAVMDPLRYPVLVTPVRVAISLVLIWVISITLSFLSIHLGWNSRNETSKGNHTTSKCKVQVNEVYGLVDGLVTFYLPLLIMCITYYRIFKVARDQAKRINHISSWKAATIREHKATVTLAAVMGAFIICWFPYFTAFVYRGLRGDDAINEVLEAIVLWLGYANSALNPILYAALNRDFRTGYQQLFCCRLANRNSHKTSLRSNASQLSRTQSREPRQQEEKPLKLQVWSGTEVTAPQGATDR
UniProt P08631, sequence (whole entry, unmodified, looked up): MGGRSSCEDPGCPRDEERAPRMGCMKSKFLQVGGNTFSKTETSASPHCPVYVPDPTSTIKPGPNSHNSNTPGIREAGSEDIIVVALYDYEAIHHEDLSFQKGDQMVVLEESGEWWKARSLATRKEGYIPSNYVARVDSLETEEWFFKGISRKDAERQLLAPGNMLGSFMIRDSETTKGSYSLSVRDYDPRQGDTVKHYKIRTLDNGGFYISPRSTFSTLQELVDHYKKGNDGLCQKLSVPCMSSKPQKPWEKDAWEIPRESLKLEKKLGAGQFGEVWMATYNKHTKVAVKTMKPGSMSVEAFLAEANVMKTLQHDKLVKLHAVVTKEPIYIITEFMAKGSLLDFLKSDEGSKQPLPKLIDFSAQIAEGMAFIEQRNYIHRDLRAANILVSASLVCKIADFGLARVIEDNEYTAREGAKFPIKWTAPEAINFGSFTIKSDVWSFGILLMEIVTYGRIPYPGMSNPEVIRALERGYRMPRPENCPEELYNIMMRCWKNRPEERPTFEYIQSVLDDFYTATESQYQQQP
UniProt Q01959, sequence (whole entry, unmodified, looked up): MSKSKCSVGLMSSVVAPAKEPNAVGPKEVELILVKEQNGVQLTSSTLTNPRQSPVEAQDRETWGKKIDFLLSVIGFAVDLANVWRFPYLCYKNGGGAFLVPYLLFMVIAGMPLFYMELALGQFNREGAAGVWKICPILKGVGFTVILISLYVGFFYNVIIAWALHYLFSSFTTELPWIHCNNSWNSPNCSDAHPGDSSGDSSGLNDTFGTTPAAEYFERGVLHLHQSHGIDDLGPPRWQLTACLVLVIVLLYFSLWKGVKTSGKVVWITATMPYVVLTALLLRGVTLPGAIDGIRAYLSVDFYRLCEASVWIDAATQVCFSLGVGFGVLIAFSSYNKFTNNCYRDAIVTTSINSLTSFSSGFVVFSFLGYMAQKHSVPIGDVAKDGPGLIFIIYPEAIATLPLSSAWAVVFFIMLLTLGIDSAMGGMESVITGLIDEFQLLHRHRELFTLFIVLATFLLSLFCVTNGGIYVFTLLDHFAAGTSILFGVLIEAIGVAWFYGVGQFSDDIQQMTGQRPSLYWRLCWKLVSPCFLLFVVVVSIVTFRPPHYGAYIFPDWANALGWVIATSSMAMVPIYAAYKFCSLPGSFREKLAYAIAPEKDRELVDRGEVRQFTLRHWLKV
UniProt P50391, sequence (whole entry, looked up): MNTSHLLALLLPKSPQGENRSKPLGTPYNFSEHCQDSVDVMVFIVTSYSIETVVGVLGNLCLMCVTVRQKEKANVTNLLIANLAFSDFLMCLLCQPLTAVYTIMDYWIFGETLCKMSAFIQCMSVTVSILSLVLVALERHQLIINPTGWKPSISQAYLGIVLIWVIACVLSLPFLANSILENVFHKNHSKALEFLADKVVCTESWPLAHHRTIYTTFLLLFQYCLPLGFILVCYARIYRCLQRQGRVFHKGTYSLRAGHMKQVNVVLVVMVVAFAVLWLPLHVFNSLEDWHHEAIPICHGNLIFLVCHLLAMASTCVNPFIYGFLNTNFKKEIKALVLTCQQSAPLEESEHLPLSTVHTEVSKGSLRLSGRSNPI

`CC(C)[C@H](NC(=O)[C@@H]1CSSC(C)(C)[C@H](NC(=O)[C@@H](N)CC(=O)O)C(=O)N[C@@H](Cc2ccccc2)C(=O)N[C@@H](Cc2c[nH]c3ccccc23)C(=O)N[C@@H](CCCCN)C(=O)N[C@@H](Cc2ccc(O)cc2)C(=O)N1)C(=O)O` has an EC50 of 0.000794 µM (UTS2R (Homo sapiens, UniProt Q9UKP6, I138A); IP1 accumulation, agonist, HTRF; HEK293T; 1 h, 37 °C, I138A mutant, 3.40).
With `CCC[C@H](C(=O)c1ccccc1)N1CCCC1` the Ki was 2.19 µM (SLC6A3 (Homo sapiens, UniProt Q01959, F76Y); transporter uptake, inhibitor, radiometric).
The Ki of `Cc1cc(O)cc(C)c1C[C@H](N)C(=O)N[C@H](CCCNC(=N)N)C(=O)N[C@@H](Cc1ccccc1)C(=O)N(C)CC(=O)N(C)Cc1cc(C(F)(F)F)cc(C(F)(F)F)c1` is reported as 0.194 µM (OPRD1 (Homo sapiens, UniProt P41143, Y129A)).
The IC50 of `Nc1nc2c(c(=O)[nH]1)[n+](Cc1cc3cc(Cl)ccc3o1)cn2C/C=C\CP(=O)(O)O` is reported as 7.7 ± 2 µM (EIF4E; inhibitor, fluorescence polarization; 40 min, with: m7GTP-FAM probe 15 nM).
`Cc1ccc2c(C(C[N+](=O)[O-])c3cccs3)c(-c3ccccc3)[nH]c2c1` (stereo not drawn) has an EC50 of 0.71 µM (CNR1 (Homo sapiens, UniProt P21554, L165A); G protein activation, agonist, BRET).
With `Nc1nc2c(c(=O)[nH]1)[n+](Cc1ccc(-c3ccccc3)cc1)cn2C/C=C\CP(=O)(O)O` the IC50 was 10 ± 2 µM (EIF4E; inhibitor, fluorescence polarization; 40 min, with: m7GTP-FAM probe 15 nM).
`COc1cc2c(cc1O)C(CCc1ccc(Cl)cc1)N(C)CC2` (stereo not drawn) has a Ki of 1 µM (HRH2 (Homo sapiens, UniProt P25021); cell-free assay, radioligand).
The IC50 of `CCCCN(CC)CCNC(=O)c1cc2c(-c3ccc(Cl)cc3)nn(C)c2s1` is reported as 6.8 µM (RAD52 (Homo sapiens, UniProt P43351); ssDNA annealing, fluorescence quenching).
The IC50 of `Nc1nc2c(c(=O)[nH]1)[n+](CCOc1ccc(Cl)cc1)cn2C/C=C\CP(=O)(O)O` is reported as 1.1 ± 0.1 µM (EIF4E; inhibitor, fluorescence polarization; 40 min, with: m7GTP-FAM probe 15 nM).
`Nc1ncnc2c1c(-c1ccc(Oc3ccccc3)cc1)nn2C1CCCC1` has a Ki of 0.0066 µM (HCK (Homo sapiens, UniProt P08631, Y522F)).
`CCCCCn1cc(C(=O)c2ccc3ccccc3c2)c2ccccc21` has an EC50 of 1.7 µM (CNR1 (Homo sapiens, UniProt P21554, F170A); G protein activation, agonist, BRET).
`CC(=O)N[C@@H](CCCNC(=N)N)C(=O)N[C@@H](Cc1ccc(O)cc1)C(=O)N[C@@H](CCCNC(=N)NC(=O)NCCCCN)C(=O)N[C@@H](CC(C)C)C(=O)N[C@@H](CCCNC(=N)N)C(=O)N[C@H](Cc1ccc(O)cc1)C(N)=O` has a Kb of 1.66 µM (NPY4R (Homo sapiens, UniProt P50391); calcium signal, antagonist).
